Earlier results, collected from citations in different studies.
Each line is one published result; not all experiments were run side by side.
Chain of UniProt Q8N4C8 (whole entry, looked up): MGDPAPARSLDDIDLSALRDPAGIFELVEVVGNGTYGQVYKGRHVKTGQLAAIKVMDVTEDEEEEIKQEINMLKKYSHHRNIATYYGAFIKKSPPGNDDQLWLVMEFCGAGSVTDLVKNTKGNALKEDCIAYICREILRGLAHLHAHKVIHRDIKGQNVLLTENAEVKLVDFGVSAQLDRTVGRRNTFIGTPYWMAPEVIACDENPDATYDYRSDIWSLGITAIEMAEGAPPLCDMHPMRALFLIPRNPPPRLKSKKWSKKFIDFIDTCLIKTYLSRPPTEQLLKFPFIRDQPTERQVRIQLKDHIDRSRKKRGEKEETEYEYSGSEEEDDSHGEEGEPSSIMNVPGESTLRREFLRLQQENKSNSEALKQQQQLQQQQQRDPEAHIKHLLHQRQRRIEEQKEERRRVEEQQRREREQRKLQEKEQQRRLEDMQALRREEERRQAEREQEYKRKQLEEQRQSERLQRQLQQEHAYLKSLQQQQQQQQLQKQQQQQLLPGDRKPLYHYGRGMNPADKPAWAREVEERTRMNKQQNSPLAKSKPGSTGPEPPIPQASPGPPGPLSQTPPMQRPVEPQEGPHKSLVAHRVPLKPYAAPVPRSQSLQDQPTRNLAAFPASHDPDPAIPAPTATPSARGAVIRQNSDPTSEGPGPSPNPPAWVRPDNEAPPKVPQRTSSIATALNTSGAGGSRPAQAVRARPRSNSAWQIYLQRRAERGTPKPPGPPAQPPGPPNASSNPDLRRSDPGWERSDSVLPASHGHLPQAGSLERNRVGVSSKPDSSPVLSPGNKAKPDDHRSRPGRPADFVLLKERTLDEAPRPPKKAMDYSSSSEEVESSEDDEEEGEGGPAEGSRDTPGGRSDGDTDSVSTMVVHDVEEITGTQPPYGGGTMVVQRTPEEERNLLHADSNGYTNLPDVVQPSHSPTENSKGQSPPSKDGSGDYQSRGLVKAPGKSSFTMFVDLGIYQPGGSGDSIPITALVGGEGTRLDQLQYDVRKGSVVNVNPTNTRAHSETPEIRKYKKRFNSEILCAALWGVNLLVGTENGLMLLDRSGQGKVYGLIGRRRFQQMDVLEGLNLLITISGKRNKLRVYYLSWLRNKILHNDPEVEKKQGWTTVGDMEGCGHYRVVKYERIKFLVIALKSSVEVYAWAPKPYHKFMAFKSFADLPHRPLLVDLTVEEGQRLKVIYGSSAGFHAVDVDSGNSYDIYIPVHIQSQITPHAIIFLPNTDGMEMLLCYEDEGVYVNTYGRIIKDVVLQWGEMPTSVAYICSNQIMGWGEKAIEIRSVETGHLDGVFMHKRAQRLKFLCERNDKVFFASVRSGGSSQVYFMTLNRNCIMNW

Structure (SMILES) | target | assay | test system | setting | scale | endpoint | value
Fc1c(F)c(F)c(Br)c(F)c1F | CYP2D6 |  |  | concentration not given |  | activity | inactive
CC(=O)Nc1ccc(O)cc1 | CYP2D6 | substrate |  |  |  | Vmax | 0.432 pmol/min/pmol
C=C[C@@H]1C[C@]1(NC(=O)[C@@H]1C[C@@H]2CN1C(=O)[C@H](C(C)(C)C)NC(=O)O[C@@H]1C[C@H]1CCCCCc1nc3ccc(OC)cc3nc1O2)C(=O)NS(=O)(=O)C1CC1 | CYP2D6 | inhibitor | human liver microsomes |  |  | IC50 | > 100 µM
FC1(F)C(F)(F)C(F)(F)C2(F)C(F)(F)C(F)(F)C(F)(F)C(F)(F)C2(F)C1(F)F (stereo not drawn) | CYP2D6 | inhibitor |  | Tox21 screening |  | IC50 | inactive
CNCc1cn(S(=O)(=O)c2cccc(F)c2)c(-c2ccc(F)cc2F)c1OC | CYP2D6 | enzyme activity, inhibitor |  |  |  | IC50 | 33.4 µM
Nc1cc(C(F)(F)F)c(-c2nc(N3CCOCC3)nc(N3CCOCC3)n2)cn1 | MINK1 (Homo sapiens, UniProt Q8N4C8) | enzyme activity |  | 10 µM | relative to: untreated | remaining activity | 86%
COC(=O)N[C@H](C(=O)N1CCC[C@H]1c1nc(-c2ccc3c(c2)O[C@@H](c2ccccc2)n2c-3cc3cc(-c4c[nH]c([C@@H]5CCCN5C(=O)[C@@H](NC(=O)OC)C(C)C)n4)ccc32)c[nH]1)C(C)C | CYP2D6 | inhibitor | human liver microsomes |  |  | IC50 | > 100 µM
N#CCNC(=O)c1ccc(-c2ccnc(Nc3ccc(N4CCOCC4=O)cc3)n2)cc1 | CYP2D6 | enzyme activity, inhibitor |  | concentration not given |  | inhibition | no inhibition
COCCc1ccc(OCC(O)CNC(C)C)cc1 (stereo not drawn) | CYP2D6 |  |  |  |  | CLint | 3.61 µL/min/pmol

Some of these lines once more:
Structure (SMILES) | target | assay | test system | setting | scale | endpoint | value
Nc1cc(C(F)(F)F)c(-c2nc(N3CCOCC3)nc(N3CCOCC3)n2)cn1 | MINK1 (Homo sapiens, UniProt Q8N4C8) | enzyme activity |  | 10 µM | relative to: untreated | remaining activity | 86%
